Assay results gathered from unrelated publications.
Protocols differ between the studies behind these lines. ± marks the error that the study gave. Where no end group is shown, it is not given here. No end group written: not given here. [ ]: non-standard residue; d: D form.

CC(C)CN(C(=O)c1cccnc1)c1c2ccccc2c(=O)n2c1[nH]c1ccccc12  GI50 (SW-620; cell growth or viability, MTT): ~20000 nM
N#Cc1ccc(-c2csc(NN=Cc3c(F)cc(F)cc3F)n2)cc1  inhibition (HCT-116; colony formation; 5 µM, 24 h): 5 to 50%
Cc1nc(Nc2ncc(C(=O)Nc3c(C)cccc3Cl)s2)cc(N2CCN(CCO)CC2)n1  cell invasion (U-87 MG; fibronectin Boyden chamber; 50 nM, 6 h; reference: vehicle): 40.3 ± 7.86%
C[C@@H]1C[C@H]2[C@@H]3CCC4=CC(=O)C=C[C@]4(C)[C@@]3(F)[C@@H](O)C[C@]2(C)[C@@]1(O)C(=O)CO  COX-2 mRNA level (A549 cells, GR knockdown; concentration not given, 24 h, weaker than with normal GR, with: TNF-α 20 ng/mL): decreased
COc1ccc(-c2nc3ccc(C4=NNC(=O)CC4C)cc3[nH]2)cc1 (stereo not drawn)  active force (hiPSC-derived 3D engineered cardiac tissue; contractility; serum-free medium; concentration not given, 15 min, paced at 1 Hz; reference: time-matched vehicle): increased
CC[C@@]1(O)C(=O)OCc2c1cc1n(c2=O)Cc2cc3c(CN(C)C)c(O)ccc3nc2-1  therapeutic window (NIH3T3 in HEY/NIH microtissues; fibroblast toxicity; 168 h, chronic toxicity, unit not given; reference: AC50 ATP over AC50 NanoLUC, day 7): 2.96
VV[dF]A (D-Phe3)  cell viability (PC-12; protection from Aβ1–42 toxicity, MTT; concentration not given, 6 h, Aβ to peptide ratio 1:10, with: Aβ1–42 2 µM; reference: untreated cells): 72.7%
CC(=O)c1s/c(=N/N=C(\C)c2ccccn2)[nH]c1C  inhibition (HEp-2; cell growth or viability, SRB; 100 µg/mL, 48 h): 70.1%
COC1=CC(c2cc3ccccc3[nH]2)=N/C1=C\c1[nH]c(C)cc1C  therapeutic window (NIH3T3 in SKOV/NIH microtissues; fibroblast toxicity; 168 h, chronic toxicity, unit not given; reference: AC50 ATP over AC50 NanoLUC, day 7): 2.77
CCCCNNC(=O)c1ccc(Br)cc1  GI50 (NCI60 panel): 2940 nM
CSCC[C@@H]1NC(=O)[C@H](CCCNC(=N)N)NC(=O)[C@H](C(C)C)NC(=O)[C@H](C(C)C)NC(=O)[C@H]([C@@H](C)O)NC(=O)[C@H](Cc2c[nH]c3ccccc23)NC(=O)CNC(=O)[C@H](CO)NC(=O)[C@H](Cc2ccc(O)cc2)NC1=O  aberrant mitoses (MCF7, synchronized in early S phase; microinjection, time-lapse microscopy; 50 µM): 46.1%
V[dI]IA (D-Ile2)  cell viability (PC-12; protection from Aβ1–42 toxicity, MTT; concentration not given, 6 h, Aβ to peptide ratio 1:10, with: Aβ1–42 2 µM; reference: untreated cells): 78.1%
CCc1ccc(C=C2SC(=S)NC2=O)cc1  VEGF-A165b/VEGF-A165a ratio (human podocytes; RT-PCR or Western blot, item: VEGF-A165b and VEGF-A165a; normal glucose; 10 µM, 48 h): 4.2
Cy5-CVWSLQNTLFM (Cy5-labelled; sequence looked up)  insulin secretion (INS-1E; glucose-stimulated insulin secretion, proinsulin-luciferase; peptide; 10 µM, 5 min, with: glucose 20 mM, 20 min): no effect
V[dL]IA (D-Leu2)  cell viability (PC-12; protection from Aβ1–42 toxicity, MTT; concentration not given, 6 h, Aβ to peptide ratio 1:5, with: Aβ1–42 2 µM; reference: untreated cells): 70%
CCC(C)n1ncn(-c2ccc(N3CCN(c4ccc(OCC5COC(Cn6cncn6)(c6ccc(Cl)cc6Cl)O5)cc4)CC3)cc2)c1=O (stereo not drawn)  active force (hiPSC-derived 3D engineered cardiac tissue; contractility; serum-free medium; concentration not given, 15 min, paced at 1 Hz; reference: time-matched vehicle): decreased
CC1=C(C(=O)Nc2cc3cn[nH]c3cc2F)C(c2ccc(Cl)cc2F)N=C(c2ccnc(Cl)c2)N1 (stereo not drawn)  therapeutic window (NIH3T3 in HEY/NIH microtissues; fibroblast toxicity; chronic toxicity, unit not given; reference: AC50 ATP over AC50 NanoLUC, day 7): 0.473
C[C@]12CC[C@@H]3c4ccc(O)cc4CC[C@H]3[C@@H]1CC[C@@]2(O)/C=C/c1ccccc1  relative stimulatory activity (Ishikawa; alkaline phosphatase induction, agonist; concentration not given, 3 d; reference: estradiol): 9.4%
ANKHYF  adherent cells (B16-F10; peptide; 2 µg coated per well, 30 to 60 min; reference: thrombospondin-coated wells): 8%
Cc1cn(-c2cc(NC(=O)c3ccc(C)c(Nc4nccc(-c5cccnc5)n4)c3)cc(C(F)(F)F)c2)cn1  GI50 (K562 K562-T315I; 48 h): 1940 nM
CNCc1ccc(-c2[nH]c3cc(F)cc4c3c2CCNC4=O)cc1  Km (SW-620; cellular uptake; 30 min): 8.4 ± 1.2 µM
Cc1ccc(-n2c(SCC(=O)NNC(=O)Nc3ccccc3)nc3ccccc3c2=O)cc1  early apoptotic cells (HCT-116; annexin V-FITC/PI flow cytometry; concentration not given, 24 h): 26.3%
[dL]VIA (D-Leu1)  cell viability (PC-12; protection from Aβ1–42 toxicity, MTT; concentration not given, 6 h, Aβ to peptide ratio 1:1, with: Aβ1–42 2 µM; reference: untreated cells): 70%
Oc1ccc(-c2nc(-c3ccncc3)c(-c3ccc(F)cc3)[nH]2)cc1  mRNA level (iPSC-derived intestinal progenitor cells; item: ISX; concentration not given; reference: DMSO): increased
COc1ccc(/C=C2/S/C(=N/N=C(\C)c3ccccn3)NC2=O)cc1OC  inhibition (HEp-2; cell growth or viability, SRB; 100 µg/mL, 48 h): 71.5%
RERMS  growth-promoting activity (A-1 fibroblasts; cell number increase; peptide; concentration not given, 3 d, 10% FCS; reference: basal increase): active
O=C(/C=C/c1ccc(O)cc1)c1ccc(O)cc1O  GSH level (H4IIE; 160 µM, 24 h; reference: DMSO): 2.5 fold
C/C(=N\N=C1/NC(=O)C(C)S1)c1ccccn1 (stereo not drawn)  inhibition (HEp-2; cell growth or viability, SRB; 100 µg/mL, 48 h): 71.7%
CC[C@H](C)[C@H](NC(=O)[C@H](NC(=O)[C@@H](N)C(C)C)C(C)C)C(=O)N[C@@H](C)C(N)=O  viability (PC-12; Aβ42-induced neurotoxicity, inhibitor, MTT; concentration not given, 6 h, 37 °C, peptide to Aβ42 1:2, with: Aβ42 2 µM; reference: untreated cells): 75.2%
CSc1cccc(Nc2ncc3cc(-c4c(Cl)cccc4Cl)c(=O)n(C)c3n2)c1  therapeutic window (NIH3T3 in HEY/NIH microtissues; fibroblast toxicity; chronic toxicity, unit not given; reference: AC50 ATP over AC50 NanoLUC, day 7): 20.4
COc1cc(CC=O)ccc1O  intracellular level ratio (PC6-3; tyrosine hydroxylase inhibition, HPLC; reference: DOPAL): 2 fold
C=CC(=O)Nc1cc2c(Nc3ccc(F)c(Cl)c3)ncnc2cc1C#CC(C)(C)N1CCN(C)CC1  therapeutic window (NIH3T3 in SKOV/NIH microtissues; fibroblast toxicity; chronic toxicity, unit not given; reference: AC50 ATP over AC50 NanoLUC, day 7): 28.4
O=C(O)CN(CC(=O)O)c1ccccc1OCCOc1ccccc1N(CC(=O)O)CC(=O)O  PACAP-27-induced Ca2+ increase (NCI-H838; inhibitor, item: cytosolic Ca2+; 1 µM, with: PACAP-27 100 nM): inhibited
COc1ccc(C[C@]2(O)COc3cc(O)cc(O)c3C2=O)cc1  GI50 (92-1 uveal melanoma cells; alamarBlue; 48 h): > 100000 nM
Oc1cc(O)c2cc(O)c(-c3cc(O)c(O)c(O)c3)[o+]c2c1  VEGF-A165b/VEGF-A165a ratio (human podocytes; RT-PCR or Western blot, item: VEGF-A165b and VEGF-A165a; high glucose (diabetic); 10 µg/mL, 48 h): 2.67
CCN(CC)CCNC(=O)c1ccc(NC(C)=O)cc1  effect on decay-rise ratio (human iPSC-derived cardiomyocytes; calcium transient; 10 µM, 90 min, 5 donors; reference: vehicle): no effect
VVI[dF] (D-Phe4)  cell viability (PC-12; protection from Aβ1–42 toxicity, MTT; concentration not given, 6 h, Aβ to peptide ratio 1:1, with: Aβ1–42 2 µM; reference: untreated cells): 70%
CCOc1ccccc1OCCN[C@H](C)Cc1ccc(OC)c(S(N)(=O)=O)c1  active force (hiPSC-derived 3D engineered cardiac tissue; contractility; serum-free medium; concentration not given, 15 min, paced at 1 Hz; reference: time-matched vehicle): decreased
CC(=O)C1S/C(=N/N=C(\C)c2ccccn2)NC1=O (stereo not drawn)  inhibition (HEp-2; cell proliferation, SRB; 100 µg/mL, 48 h): > 75%
V[dP]IA (D-Pro2)  cell viability (PC-12; protection from Aβ1–42 toxicity, MTT; concentration not given, 6 h, Aβ to peptide ratio 1:5, with: Aβ1–42 2 µM; reference: untreated cells): 76%
C[C@@H]1C[C@H]2[C@@H]3CCC4=CC(=O)C=C[C@]4(C)[C@@]3(F)[C@@H](O)C[C@]2(C)[C@@]1(O)C(=O)CO  mRNA level (iPSC-derived intestinal progenitor cells; item: villin 1; concentration not given; reference: DMSO): increased
[Aib][Aib]IA (Aib = CC(C)(N)C(=O)O)  cell viability (PC-12; protection from Aβ1–42 toxicity, MTT; concentration not given, 6 h, Aβ to peptide ratio 1:1, with: Aβ1–42 2 µM; reference: untreated cells): 73.9%
COC(=O)[C@]12CCC(C)(C)C[C@H]1[C@H]1C(=O)C=C3[C@@]4(C)C=C(C#N)C(=O)C(C)(C)[C@@H]4CC[C@@]3(C)[C@]1(C)CC2  therapeutic window (NIH3T3 in SKOV/NIH microtissues; fibroblast toxicity; 168 h, chronic toxicity, unit not given; reference: AC50 ATP over AC50 NanoLUC, day 7): 1.33
[dI]VIA (D-Ile1)  cell viability (PC-12; protection from Aβ1–42 toxicity, MTT; concentration not given, 6 h, Aβ to peptide ratio 1:10, with: Aβ1–42 2 µM; reference: untreated cells): 70%
C#C[C@@]1(O)[C@@H](CO)O[C@@H](n2cc(Br)c3c(N)ncnc32)[C@@H]1O  GI50 (U-251; cell growth or viability, SRB; 48 h): 22 nM

Some of these lines once more:
COc1ccc(-c2nc3ccc(C4=NNC(=O)CC4C)cc3[nH]2)cc1 (stereo not drawn)  active force (hiPSC-derived 3D engineered cardiac tissue; contractility; serum-free medium; concentration not given, 15 min, paced at 1 Hz; reference: time-matched vehicle): increased
CC[C@@]1(O)C(=O)OCc2c1cc1n(c2=O)Cc2cc3c(CN(C)C)c(O)ccc3nc2-1  therapeutic window (NIH3T3 in HEY/NIH microtissues; fibroblast toxicity; 168 h, chronic toxicity, unit not given; reference: AC50 ATP over AC50 NanoLUC, day 7): 2.96
VV[dF]A (D-Phe3)  cell viability (PC-12; protection from Aβ1–42 toxicity, MTT; concentration not given, 6 h, Aβ to peptide ratio 1:10, with: Aβ1–42 2 µM; reference: untreated cells): 72.7%
CC(=O)c1s/c(=N/N=C(\C)c2ccccn2)[nH]c1C  inhibition (HEp-2; cell growth or viability, SRB; 100 µg/mL, 48 h): 70.1%
COC1=CC(c2cc3ccccc3[nH]2)=N/C1=C\c1[nH]c(C)cc1C  therapeutic window (NIH3T3 in SKOV/NIH microtissues; fibroblast toxicity; 168 h, chronic toxicity, unit not given; reference: AC50 ATP over AC50 NanoLUC, day 7): 2.77
